Measured values of several laboratories.
Each numbered part is a random draw from the data of one study; scales do not carry over between parts.

Series 1
Target: Histone acetyltransferase KAT6A, winged helix 1, GST fusion (KAT6A, Homo sapiens, UniProt Q92794, residues 1-85)
Technique: protein binding microarray
Form: double-stranded DNA, one strand shown
Medium: in vitro
Tested at: not given
Notes: 8-mer, flanks averaged, mean of 2 arrays, mostly near background
Reference: not given
Direction: higher = stronger binding
Endpoint: E-score
Target sequence (chain): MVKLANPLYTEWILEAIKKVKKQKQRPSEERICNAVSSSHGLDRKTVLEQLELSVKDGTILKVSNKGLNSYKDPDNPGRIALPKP
GCGGATGA: 0.117
GATTGTCC: 0.0283
ATCCAGGA: -0.102
CACCAACG: 0.11
CGATTCAA: -0.1
GTGCCAGA: -0.191
ACTTTAAA: 0.0845
ATGCAGCC: -0.166
CTTTTTAA: -0.151
GACACTCC: -0.156
CTATGCAA: -0.138
ATTGGCCC: -0.202
CGGTGCGC: 0.387
AGAACCAA: -0.191
AGTGTCGC: 0.125
CTCAGAAA: -0.16
ATGCCTAG: -0.0642
CTCTCTTC: -0.0909
CCCACCCC: 0.091
ATGGAGAC: -0.189
CATCCCGC: 0.355
ATTTTTGA: -0.0795
GAATCCAA: -0.145

Series 2
Target: Centromere-binding protein 1, full length, N-terminal tag (CBF1, Saccharomyces cerevisiae, UniProt P17106, residues 1-351)
Sequence of UniProt P17106 (whole entry, looked up): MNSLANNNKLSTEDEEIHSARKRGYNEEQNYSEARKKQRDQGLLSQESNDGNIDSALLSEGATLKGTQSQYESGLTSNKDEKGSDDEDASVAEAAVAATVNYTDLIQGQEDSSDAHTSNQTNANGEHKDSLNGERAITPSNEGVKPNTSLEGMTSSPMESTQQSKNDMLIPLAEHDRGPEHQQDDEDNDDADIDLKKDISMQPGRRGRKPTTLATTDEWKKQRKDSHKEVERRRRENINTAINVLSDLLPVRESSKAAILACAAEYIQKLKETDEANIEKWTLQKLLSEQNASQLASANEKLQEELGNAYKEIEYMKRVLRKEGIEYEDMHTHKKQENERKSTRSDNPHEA
Technique: protein-binding microarray
Form: double-stranded DNA, one strand shown
Medium: in vitro
Tested at: 0.8 µM
Notes: whole 60-bp probe, no competitor
Direction: higher = stronger binding
Endpoint: fluorescence intensity
GAACTCTGCGCAGTGCACGTTCAAAAGAAAAGCTAGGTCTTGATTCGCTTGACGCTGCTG: 585 a.u.
GAAGTTTTAAAATGTCATGCGTTTTCGTCATTTTAGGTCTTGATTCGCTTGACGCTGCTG: 654 a.u.
CCTAACTACTATATCAGCATGACATAGCTTCGTACAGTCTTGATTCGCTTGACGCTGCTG: 568 a.u.
CTATCAATTATTCATCACCAATATAGACTAATGTTCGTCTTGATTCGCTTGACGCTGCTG: 564 a.u.
TGTACGAAGCTATAGATCGTGATTATAGTAGTTAGGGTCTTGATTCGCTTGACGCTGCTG: 578 a.u.
TGTACGAAGCTATATCACCAGCTTATAGTAGTTAGGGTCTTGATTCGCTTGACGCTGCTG: 513 a.u.
GAACGGTGAGAACGTGATGTGATAGCCGTTACATAGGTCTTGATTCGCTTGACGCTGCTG: 2100 a.u.
CTATACAATCAAGCTCACCCGAGCCATCCACCTTTCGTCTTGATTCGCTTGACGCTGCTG: 519 a.u.
CTATCCTCTCGTAAAATCGTGCGCATGTTAAATTTCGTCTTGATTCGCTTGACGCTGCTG: 652 a.u.
CTATGGGCGAAGGTGCACGTTCTGGTATTACACTTCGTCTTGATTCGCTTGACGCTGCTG: 599 a.u.
CTAAGTGTGTGTAATTGCGTGTAGCTTGAAAGATTCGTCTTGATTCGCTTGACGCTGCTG: 525 a.u.
GAACTTATAAATTCACATGTGTCGGAGATCCACTAGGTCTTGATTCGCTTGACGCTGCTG: 711 a.u.
GAAGGGTTAAAGAGTCACGGTGAAATTTGAATTTAGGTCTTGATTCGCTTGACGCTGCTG: 655 a.u.
TGTACGAAGCTATCACAGGAGATTATAGTAGTTAGGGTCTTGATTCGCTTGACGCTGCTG: 523 a.u.
GAAGGATATTGTGCTGATGTAAAAGTATTCCTATAGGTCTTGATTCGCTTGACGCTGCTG: 562 a.u.
GAAAAAAATGCGGGTCACGAAAGGGGTACCGAGTAGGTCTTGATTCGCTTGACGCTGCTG: 578 a.u.
GAACTGTCCTTCCATAATCACGTGCTTACCTATTAGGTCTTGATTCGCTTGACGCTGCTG: 18800 a.u.
CTAAATTCGTAGGTGCAGGTGAGCATATTGCCGTTCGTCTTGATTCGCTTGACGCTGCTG: 560 a.u.
GAATGGTTTTACTTGCACGTGACCAAGAATGGTTAGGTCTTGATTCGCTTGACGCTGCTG: 37500 a.u.
GAAGACGAGATAATGAGCATGATGTATAAACAATAGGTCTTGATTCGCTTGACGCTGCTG: 578 a.u.
GAACATAAAGAGCACGTGCGGGCGCGCTGGGTATAGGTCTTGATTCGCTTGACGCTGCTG: 11900 a.u.
GAAGAAAAAACTTCTCAGCTGACTCCACCATATTAGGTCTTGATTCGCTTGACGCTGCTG: 708 a.u.
CTATTGTGGTGATTTCACGCTTATGTACACGGGTTCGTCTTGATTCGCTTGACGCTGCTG: 646 a.u.
CTACTACAATTGTACAATGTCACGTAAACAGTTTTCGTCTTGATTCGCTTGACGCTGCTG: 671 a.u.

Series 3
Target: Prothrombin, mature alpha-thrombin (F2, Homo sapiens, UniProt P00734)
Technique: aptamer microarray, sandwich
Form: DNA with 2'F-ANA
Medium: in vitro
Tested at: 200 nM
Notes: whole 15-mer aptamer, many near background
Together with: Cy3 exosite-II aptamer, 400 nM
Direction: higher = stronger binding
Endpoint: mean fluorescence intensity
Sequence: GGTTGGTGTGGTTGG
2'F-ANA at 1 7 12 14: 73.4 a.u.
2'F-ANA at 1 3 4 5 9 10 11 12 14: 48.5 a.u.
2'F-ANA at 1 2 3 7 8 9 12 14 15: 106 a.u.
2'F-ANA at 1 2 3 5 6 9 10 13 14 15: 49.5 a.u.
2'F-ANA at 1 3 5 7 10 12 13 14 15: 45 a.u.
2'F-ANA at 3 4 6 7 9 10 11 12 13: 207 a.u.
2'F-ANA at 1 2 3 4 5 6 7 8 10 11 12 13 15: 73.8 a.u.
2'F-ANA at 2 3 5 8 9 15: 115 a.u.
2'F-ANA at 2 3 4 5 8 9 10 12 14 15: 421 a.u.
2'F-ANA at 1 2 5 6 9 10 11 13 15: 45.5 a.u.
2'F-ANA at 8 10 11 13 15: 131 a.u.
2'F-ANA at 2 4 5 7 9 10 14: 44.9 a.u.
2'F-ANA at 1 2 4 5 10 11 12 13 15: 56.3 a.u.
2'F-ANA at 1 2 3 4 5 6 9 11 12 14 15: 70.3 a.u.
2'F-ANA at 1 5 6 10 13: 50.4 a.u.
2'F-ANA at 1 3 5 7 8 11 12 13 14 15: 51.1 a.u.
2'F-ANA at 1 2 5 8 11 12 13: 97.2 a.u.
2'F-ANA at 1 4 7 8 11 12 13: 203 a.u.
2'F-ANA at 1 2 3 5 9 13 14 15: 44.3 a.u.
2'F-ANA at 6 8 9 10 12 13 15: 149 a.u.
2'F-ANA at 1 3 4 5 6 8 10 11 13: 80.4 a.u.
2'F-ANA at 2 3 4 5 6 11 15: 65.5 a.u.
2'F-ANA at 1 2 3 4 5 6 8 10 11 12 15: 55.2 a.u.
2'F-ANA at 1 3 5 9 10: 51.3 a.u.
2'F-ANA at 1 2 4 6 8 12 13 14: 61 a.u.

Series 4
Target: RNA binding protein fox-1 homolog 2, RRM domain, GST-SBP tag (RBFOX2, Homo sapiens, UniProt O43251-10, residues 100-194)
Technique: RNA Bind-n-Seq
Form: RNA
Medium: in vitro
Tested at: 365 nM
Notes: natural RNA segment, single round, ends assumed
Reference: no-protein control
Direction: higher = stronger binding
Endpoint: RBNS enrichment (R)
Construct (chain): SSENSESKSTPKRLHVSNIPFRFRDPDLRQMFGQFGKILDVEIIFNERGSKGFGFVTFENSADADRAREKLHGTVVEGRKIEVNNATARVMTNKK
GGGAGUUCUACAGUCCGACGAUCCUAUCUGAUAGAGGUAUUUUCUGUGGCCCUGGGAGCUGUCUGUCUUUCCCCUACCCCCAAGGAUGCCAGGAAGACGUCCACCAUUAGCCAUGUGGCAACCUUUACUUCUAUGGAAUUCUCGGGUGCCAA: 0.34
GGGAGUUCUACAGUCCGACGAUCCCAUGGAAACUGAGUGAUGGUUUGAAAUGAAGACUUUGUCGUGUACUUAGGAAGUAAAUAUCUUUUGAAUUAGAGAAAGUGUUGGGACAGAAAGUACUUUAUGUAACUAAUGGAAUUCUCGGGUGCCAA: 0.359
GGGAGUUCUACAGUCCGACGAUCCUCCUUUCAGAACAGGAAUGUGCCUCCUAAUGUUUACUGUUACCCUGCUGUCUCUGUAUGUCCAGUCGGUGGAACACUGUAAUGACUUGAGAAUAAACUGCCCAGAGUUCUGGAAUUCUCGGGUGCCAA: 0.528
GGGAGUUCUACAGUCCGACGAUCUGAUUGUCACAGAGAUGGUAGAAAUUAUGAUCUGACUGGAAAACAAUCCUGUAUCCCCUCCCAAAGAAUCAUGGGCUUUUUUUUUGAAUAAAAAAGCAGACAAAUAGACUUGGAAUUCUCGGGUGCCAA: 0.428
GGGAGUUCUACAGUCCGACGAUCUCACACUCCCUCUGACGGACGGACGGACGUCAGUGCCCUCUCCCUUCUCCUUGUGAAGCCAUAAGCCUGACUUCCCCUCAGCCCUGCUCCCUCAUUUUCUCUCAUCAUGUUGGAAUUCUCGGGUGCCAA: 0.517
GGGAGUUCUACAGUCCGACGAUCCAGCAGCUUCUUACCUGUGCGGGAGCGAAAAAGCUGGGCUUCAACAUGGCAGGUCUGUAGGGGUCAGACCCGAGCAGCCUGGACUUUACAGUUAUGUGAAACUGUCCACAUGGAAUUCUCGGGUGCCAA: 0.274
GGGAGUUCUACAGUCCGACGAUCAGCUGAGUGAGAACAUGAACUUUUUGCACCAUGUACCCAUGGCUUACACUACUUAGAAAAUCACCUUUUCAGAUAAAACAGUUUAUGAGUUCAUAGAGAACACCAGCACUUGGAAUUCUCGGGUGCCAA: 0.368
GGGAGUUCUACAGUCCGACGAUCCCAGGGUCAUCACAUGUCAAAGCAAUAUUGGGGAUUGCUAGGCUUCUUUCAACUUACUUUUCACAGUAGGUUUCAGGGGAACAAAGCCAUGCCUGCUGCCUGCCUCUCUCUGGAAUUCUCGGGUGCCAA: 0.849
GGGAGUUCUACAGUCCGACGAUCGCCAGGACAUCCUGCUAUCAAUCAGAAGGACUUGGACUCUCCUGCAGAGUGCAAGUGUGGGUGUCGGUGUGAGUUCACCUAACAAAUCAUGACCUUUAUCAUCAACUCUGUGGAAUUCUCGGGUGCCAA: 0.207

Repeated from above (series 4):
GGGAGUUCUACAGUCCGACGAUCCUAUCUGAUAGAGGUAUUUUCUGUGGCCCUGGGAGCUGUCUGUCUUUCCCCUACCCCCAAGGAUGCCAGGAAGACGUCCACCAUUAGCCAUGUGGCAACCUUUACUUCUAUGGAAUUCUCGGGUGCCAA: 0.34
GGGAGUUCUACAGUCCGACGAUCCCAUGGAAACUGAGUGAUGGUUUGAAAUGAAGACUUUGUCGUGUACUUAGGAAGUAAAUAUCUUUUGAAUUAGAGAAAGUGUUGGGACAGAAAGUACUUUAUGUAACUAAUGGAAUUCUCGGGUGCCAA: 0.359
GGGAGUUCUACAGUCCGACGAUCCUCCUUUCAGAACAGGAAUGUGCCUCCUAAUGUUUACUGUUACCCUGCUGUCUCUGUAUGUCCAGUCGGUGGAACACUGUAAUGACUUGAGAAUAAACUGCCCAGAGUUCUGGAAUUCUCGGGUGCCAA: 0.528
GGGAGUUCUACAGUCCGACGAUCUGAUUGUCACAGAGAUGGUAGAAAUUAUGAUCUGACUGGAAAACAAUCCUGUAUCCCCUCCCAAAGAAUCAUGGGCUUUUUUUUUGAAUAAAAAAGCAGACAAAUAGACUUGGAAUUCUCGGGUGCCAA: 0.428
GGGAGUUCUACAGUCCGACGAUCUCACACUCCCUCUGACGGACGGACGGACGUCAGUGCCCUCUCCCUUCUCCUUGUGAAGCCAUAAGCCUGACUUCCCCUCAGCCCUGCUCCCUCAUUUUCUCUCAUCAUGUUGGAAUUCUCGGGUGCCAA: 0.517
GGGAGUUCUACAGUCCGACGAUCCAGCAGCUUCUUACCUGUGCGGGAGCGAAAAAGCUGGGCUUCAACAUGGCAGGUCUGUAGGGGUCAGACCCGAGCAGCCUGGACUUUACAGUUAUGUGAAACUGUCCACAUGGAAUUCUCGGGUGCCAA: 0.274
